Earlier results, collected from citations in different studies.
Numbered parts are unrelated; values within a part may stem from several laboratories. ± marks the error that the study gave.

Sample 1
Organism: Cryptosporidium parvum
Technique: high-throughput screen
Tested at: concentration not given
Measurement: activity
Compound = Nc1nc(F)nc2c1ncn2[C@@H]1O[C@H](CO)[C@@H](O)[C@@H]1O; result = inactive
Compound = CCCNCC(O)COc1ccccc1C(=O)CCc1ccccc1 (centres unmarked); result = inactive
Compound = OCc1cc(C(O)CNCCCCCCOCCCCc2ccccc2)ccc1O (centres unmarked); result = inactive
Compound = OCCN1C[C@H](O)[C@@H](O)[C@H](O)[C@H]1CO; result = inactive
Compound = Cn1c(=O)c2[nH]cnc2n(C)c1=O; result = inactive
Compound = CO[C@H]1/C=C/O[C@@]2(C)Oc3c(C)c(O)c4c(O)c(c(/C=N/N5CCN(C6CCCC6)CC5)c(O)c4c3C2=O)NC(=O)/C(C)=C\C=C\[C@H](C)[C@H](O)[C@@H](C)[C@@H](O)[C@@H](C)[C@H](OC(C)=O)[C@@H]1C; result = inactive
Compound = O=C(C1CCCCC1)N1CC(=O)N2CCc3ccccc3C2C1 (centres unmarked); result = inactive
Compound = O=C(CCCN1CC=C(n2c(=O)[nH]c3ccccc32)CC1)c1ccc(F)cc1; result = inactive
Compound = CN1CCN(CCCN2c3ccccc3Sc3ccc(C(F)(F)F)cc32)CC1; result = inactive
Compound = CN(C)CCC=C1c2ccccc2CCc2ccccc21; result = inactive
Compound = NS(=O)(=O)c1cc2c(cc1Cl)NCNS2(=O)=O; result = inactive
Compound = COc1cc(C[C@@H](CO)[C@H](CO)Cc2ccc(O)c(OC)c2)ccc1O; result = inactive
Compound = CCC(C)(C)C(=O)O[C@H]1C[C@@H](C)C=C2C=C[C@H](C)[C@H](CC[C@@H]3C[C@@H](O)CC(=O)O3)[C@H]21; result = inactive
Compound = CC(COc1ccccc1)NC(C)C(O)c1ccc(O)cc1 (centres unmarked); result = inactive
Compound = O=C1Nc2ccc(Cl)cc2[C@@](C#CC2CC2)(C(F)(F)F)O1; result = inactive
Compound = Clc1ccc(COC(Cn2ccnc2)c2ccc(Cl)cc2Cl)c(Cl)c1 (centres unmarked); result = inactive
Compound = COc1ccc(CC(C)NCC(O)c2ccc(O)c(NC=O)c2)cc1.COc1ccc(CC(C)NCC(O)c2ccc(O)c(NC=O)c2)cc1.O.O.O=C(O)/C=C/C(=O)O (centres unmarked); result = inactive
Compound = O=C1[C@H](CC[C@H](O)c2ccc(F)cc2)[C@@H](c2ccc(O)cc2)N1c1ccc(F)cc1; result = inactive
Compound = CC(=O)[C@]1(O)Cc2c(O)c3c(c(O)c2[C@@H](O[C@H]2C[C@H](N)[C@H](O)[C@H](C)O2)C1)C(=O)c1ccccc1C3=O; result = inactive
Compound = O=c1c(O[C@@H]2O[C@H](CO)[C@@H](O)[C@H](O)[C@H]2O)c(-c2ccc(O)c(O)c2)oc2cc(O)cc(O)c12; result = inactive
Compound = CC(C)OC(=O)C(C)(C)Oc1ccc(C(=O)c2ccc(Cl)cc2)cc1; result = inactive
Compound = Cc1cccc(Nc2ccccc2C(=O)O)c1C; result = inactive
Compound = CC(=O)Nc1ccc(CC(=O)O)cc1; result = inactive
Compound = CN1CC(=O)N2[C@H](c3ccc4c(c3)OCO4)c3[nH]c4ccccc4c3C[C@@H]2C1=O; result = inactive
Compound = C/C=C1\[C@H]2C=C(C)C[C@]1(N)c1ccc(=O)[nH]c1C2; result = inactive

Other studies, line by line
Compound = CCc1c(Cl)c(O)c(Cl)c(O)c1C(=O)O[C@H]1[C@H](O)[C@H](OC)[C@H](OC/C2=C\C=C\C[C@H](O)/C(C)=C/[C@H](CC)[C@@H](O[C@@H]3OC(C)(C)[C@@H](OC(=O)C(C)C)[C@H](O)[C@@H]3O)/C(C)=C/C(C)=C/C[C@@H]([C@@H](C)O)OC2=O)O[C@@H]1C; tested on = Klebsiella pneumoniae; system = ATCC 700603; measurement = MIC; result = > 128 µg/mL
Compound = O=C(O)CN1CCN(CC(=O)O)CCN(CC(=O)O)CC1; tested on = Cu2+; conditions = Cu2+ + L- to CuL+; measurement = log K; result = 21.6
Compound = Cn1cncc1-c1c(F)cncc1NC(=O)c1c(N)nn2cc(F)cnc12; system = human, plasma; conditions = 270 mg daily, steady state; measurement = Cmax; result = < 4000 ng/mL
Compound = O=C(C1CCCCC1)N1CC(=O)N2CCc3ccccc3C2C1 (centres unmarked); measurement = logP; result = 2.46
Compound = CC(C)n1nccc1-c1ncccc1COc1cccc(O)c1C=O; system = octanol/water; measurement = logP; result = 2.78
Compound = CC(C)CCN[C@@H]1CCc2cc(O)c(N3CC(=O)NS3(=O)=O)c(F)c2C1; tested on = PTPN2; assay = enzyme activity, inhibitor, in vitro; measurement = IC50; result = 2.5 nM
Compound = Cc1ncsc1-c1ccc([C@H](C)NC(=O)[C@@H]2C[C@@H](O)CN2C(=O)[C@@H](NC(=O)CCCCCCCCCCNC[C@@H](C(=O)N2CCN(c3ncnc4c3[C@H](C)C[C@H]4O)CC2)c2ccc(Cl)cc2)C(C)(C)C)cc1; tested on = Akt; assay = inhibitor; conditions = concentration not given; measurement = suppression duration after washout; result = 3 days
Compound = CC(=O)Nc1ccc(O)cc1; measurement = logP; result = 0.5
Compound = Oc1ccc(-c2nc(-c3ccc(OC4CCCC4)cc3)no2)cc1; tested on = Pseudomonas aeruginosa; system = ATCC 27853; measurement = MIC; result = > 128 µg/mL
Compound = NC1(C(=O)N[C@@H](CCO)c2ccc(Cl)cc2)CCN(c2nc[nH]c3nccc2-3)CC1; tested on = Akt; assay = item: phosphorylated Akt substrates; system = mouse BT-474 xenograft, tumour; conditions = 100 mg/kg; measurement = time to peak suppression; result = 4 h
Compound = Cn1c(-c2csc(C3CCN(Cc4nc5ncccc5[nH]4)CC3)n2)nc2ccccc21; tested on = mitochondrial complex I; assay = cell-based; measurement = IC50; result = > 30000 nM
Compound = [N-]=[N+]=N[C@]1(CO)O[C@@H](n2ccc(N)nc2=O)[C@@H](F)[C@@H]1O; tested on = HIV-1; assay = viral replication; system = HEK-293T; measurement = EC50; result = 0.063 nM
Compound = Cn1nc(C(F)(F)F)cc1-c1cnc(N2CCc3cc(S(=O)(=O)Nc4c(F)cc(Cl)cc4F)cc(N4CCCC4=O)c32)nc1; tested on = MGAT2 (human); assay = enzyme activity; measurement = IC50; result = 7.8 nM
Compound = CC(=O)O[C@H]1C(=O)[C@@]2(C)[C@H]([C@H](OC(=O)c3ccccc3)[C@]3(O)C[C@H](OC(=O)[C@H](O)[C@@H](NC(=O)c4ccccc4)c4ccccc4)C(C)=C1C3(C)C)[C@]1(OC(C)=O)CO[C@@H]1C[C@@H]2O; system = advanced esophageal cancer patients; conditions = 80 mg/m2 weekly, monotherapy; measurement = median time to progression; result = 3 months
Compound = CCC(C)n1ncn(-c2ccc(N3CCN(c4ccc(OCC5COC(Cn6cncn6)(c6ccc(Cl)cc6Cl)O5)cc4)CC3)cc2)c1=O (centres unmarked); assay = calculated; system = octanol/water; measurement = logP; result = 5.66
Compound = Cc1c(NC(=O)c2cc(C(N)=O)nc3cc(F)ccc23)c(C(F)(F)F)nn1Cc1ccc(C#N)cc1; tested on = ADORA3; assay = binding, radioligand binding Eurofins-Panlabs; measurement = IC50; result = 1140 nM
Compound = O=c1[nH]c2ccccc2s1; measurement = log Kow; result = 1.78
Compound = O=C(O)CCCCCCCCCCCCCCC(=O)O; system = monkey; conditions = dose not given, added: probenecid; how to read = baseline: with over without probenecid; measurement = Cmax fold increase; result = 2 fold
Compound = CCCCCCCC1(OC)OC(=O)c2cc(OC)cc(OC)c21 (centres unmarked); tested on = MCF7; assay = cytotoxicity; measurement = IC50; result = 54000 nM
Compound = CNc1ccc(/C=C/c2ccc(OCCOCCOCCF)cc2)cc1; tested on = amyloid plaques; assay = binding; measurement = Ki; result = 6.7 nM
Compound = COc1ccc2c(c1)c(CC(=O)O)c(C)n2C(=O)c1ccc(Cl)cc1; measurement = log Kow; result = 4.27
Compound = Nc1nc(NCc2ccccc2)nc(-c2cccc(CO)c2)n1; tested on = GPR68; assay = cellular potency; conditions = concentration not given; measurement = inhibition; result = no effect
Compound = CC(C)(O/N=C(\C(=O)N[C@@H]1C(=O)N2C(C(=O)[O-])=C(C[N+]3(CCNC(=O)c4ccc(O)c(O)c4Cl)CCCC3)CS[C@H]12)c1csc(N)n1)C(=O)O; tested on = NDM-9; assay = hydrolysis by enzyme, substrate; measurement = Km; result = 53 µM
Compound = CC(C)(C)NCC(O)c1cc(O)cc(O)c1 (centres unmarked); system = octanol/water; measurement = logP; result = -0.08
Compound = C=CC(=O)N1CCC([C@@H]2CCNc3c(C(N)=O)c(-c4ccc(Oc5ccccc5)cc4)nn32)CC1; system = human patients; conditions = oral, 80 mg once daily, day 1; measurement = Cmax; result = 137 ± 69 ng/mL

Repeated from above (other studies, line by line):
Compound = O=C(C1CCCCC1)N1CC(=O)N2CCc3ccccc3C2C1 (centres unmarked); measurement = logP; result = 2.46
Compound = O=c1[nH]c2ccccc2s1; measurement = log Kow; result = 1.78
Compound = Cc1c(NC(=O)c2cc(C(N)=O)nc3cc(F)ccc23)c(C(F)(F)F)nn1Cc1ccc(C#N)cc1; tested on = ADORA3; assay = binding, radioligand binding Eurofins-Panlabs; measurement = IC50; result = 1140 nM
Compound = CC(C)(O/N=C(\C(=O)N[C@@H]1C(=O)N2C(C(=O)[O-])=C(C[N+]3(CCNC(=O)c4ccc(O)c(O)c4Cl)CCCC3)CS[C@H]12)c1csc(N)n1)C(=O)O; tested on = NDM-9; assay = hydrolysis by enzyme, substrate; measurement = Km; result = 53 µM
Compound = CC(C)(C)NCC(O)c1cc(O)cc(O)c1 (centres unmarked); system = octanol/water; measurement = logP; result = -0.08
Compound = Oc1ccc(-c2nc(-c3ccc(OC4CCCC4)cc3)no2)cc1; tested on = Pseudomonas aeruginosa; system = ATCC 27853; measurement = MIC; result = > 128 µg/mL
Compound = Nc1nc(NCc2ccccc2)nc(-c2cccc(CO)c2)n1; tested on = GPR68; assay = cellular potency; conditions = concentration not given; measurement = inhibition; result = no effect
